{"data": "Measured values pooled from the literature", "note": "Lines come from different studies, so protocols differ. Values joined by “and” are separate records of one study, mostly repeats; a detail may differ. ± gives the spread as reported.", "UniProt P21397, sequence (whole entry, looked up)": "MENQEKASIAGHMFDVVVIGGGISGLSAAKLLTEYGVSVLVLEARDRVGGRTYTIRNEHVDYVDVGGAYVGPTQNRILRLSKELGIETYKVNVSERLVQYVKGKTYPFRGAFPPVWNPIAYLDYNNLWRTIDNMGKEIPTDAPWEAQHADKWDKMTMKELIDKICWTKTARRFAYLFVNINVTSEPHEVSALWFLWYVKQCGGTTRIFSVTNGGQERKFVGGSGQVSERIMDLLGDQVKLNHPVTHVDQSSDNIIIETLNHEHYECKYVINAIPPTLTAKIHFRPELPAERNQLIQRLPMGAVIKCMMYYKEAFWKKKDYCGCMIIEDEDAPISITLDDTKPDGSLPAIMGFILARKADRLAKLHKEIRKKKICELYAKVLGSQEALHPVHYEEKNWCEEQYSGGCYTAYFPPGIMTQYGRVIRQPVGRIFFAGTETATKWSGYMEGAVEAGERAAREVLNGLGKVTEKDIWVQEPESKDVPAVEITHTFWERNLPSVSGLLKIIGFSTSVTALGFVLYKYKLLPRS", "UniProt P08183, sequence (whole entry, looked up)": "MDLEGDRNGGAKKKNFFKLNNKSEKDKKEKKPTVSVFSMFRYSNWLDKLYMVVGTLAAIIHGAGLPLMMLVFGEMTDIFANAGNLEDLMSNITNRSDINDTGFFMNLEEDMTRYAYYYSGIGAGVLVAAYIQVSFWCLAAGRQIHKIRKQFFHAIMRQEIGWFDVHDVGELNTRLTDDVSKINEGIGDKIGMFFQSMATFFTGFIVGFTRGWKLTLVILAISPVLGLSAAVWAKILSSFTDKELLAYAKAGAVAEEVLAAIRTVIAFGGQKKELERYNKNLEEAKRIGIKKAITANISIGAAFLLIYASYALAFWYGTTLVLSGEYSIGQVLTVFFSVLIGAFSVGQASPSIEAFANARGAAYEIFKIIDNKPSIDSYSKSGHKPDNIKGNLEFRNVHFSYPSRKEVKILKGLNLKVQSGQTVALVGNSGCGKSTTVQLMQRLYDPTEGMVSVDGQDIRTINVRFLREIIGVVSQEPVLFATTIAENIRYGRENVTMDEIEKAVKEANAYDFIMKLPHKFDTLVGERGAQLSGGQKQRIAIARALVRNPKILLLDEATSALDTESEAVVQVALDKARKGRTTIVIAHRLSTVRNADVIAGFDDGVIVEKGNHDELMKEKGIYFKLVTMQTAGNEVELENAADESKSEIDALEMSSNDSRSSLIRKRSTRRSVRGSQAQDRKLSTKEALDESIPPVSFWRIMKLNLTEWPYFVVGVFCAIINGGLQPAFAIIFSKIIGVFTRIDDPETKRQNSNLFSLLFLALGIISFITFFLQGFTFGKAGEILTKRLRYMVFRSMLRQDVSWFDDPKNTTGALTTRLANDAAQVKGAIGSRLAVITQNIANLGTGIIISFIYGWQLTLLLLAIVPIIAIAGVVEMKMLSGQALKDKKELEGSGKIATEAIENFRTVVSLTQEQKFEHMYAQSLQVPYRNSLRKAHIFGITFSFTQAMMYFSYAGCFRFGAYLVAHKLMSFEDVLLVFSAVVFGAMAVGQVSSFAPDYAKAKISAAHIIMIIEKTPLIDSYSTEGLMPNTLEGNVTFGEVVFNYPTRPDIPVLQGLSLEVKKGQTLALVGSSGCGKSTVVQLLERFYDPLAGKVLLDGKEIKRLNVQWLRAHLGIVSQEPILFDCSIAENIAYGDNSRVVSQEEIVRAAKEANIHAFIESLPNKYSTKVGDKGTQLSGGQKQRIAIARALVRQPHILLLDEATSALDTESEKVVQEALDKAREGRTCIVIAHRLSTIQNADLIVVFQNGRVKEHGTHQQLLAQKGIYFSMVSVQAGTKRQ"}
{"Structure (SMILES)": "Cc1ccc([C@@H]2O[C@H](CO)[C@@H](O)[C@H](O)[C@H]2O)cc1Cc1ccc(-c2ccc(F)cc2)s1", "assay": "refers to: inorganic phosphorus", "test system": "Japanese type 2 diabetes patients", "conditions": "100 mg, day 15, 24 h urine collection", "scale": "relative to: baseline", "measurement": "urinary phosphate excretion change", "result": "30.3 mg"}
{"Structure (SMILES)": "CC[C@H]1[C@@H](O)[C@@H]2[C@H](CC[C@]3(C)[C@@H]([C@H](C)CCNC(=O)NS(=O)(=O)c4ccc(C(C)(C)C)cc4)CC[C@@H]23)[C@@]2(C)CC[C@@H](O)C[C@@H]12", "tested on": "ATP-dependent translocase ABCB1 (ABCB1, Homo sapiens, UniProt P08183)", "assay": "substrate", "test system": "human, plasma", "conditions": "dose not given, alone", "measurement": "AUC(0-inf) mean", "result": "377 ng·h/mL"}
{"Structure (SMILES)": "COc1ccccc1OCC(O)CN1CCN(CC(=O)Nc2c(C)cccc2C)CC1 (stereo not shown)", "tested on": "hiPSC-derived cardiomyocytes", "conditions": "50 µM, coupled and decoupled", "measurement": "spike amplitude", "result": "decreased"}
{"Structure (SMILES)": "CCCCCCCC[N+](CCCCCCCC)(CCCCCCCC)CCCCCCCC.[Br-]", "tested on": "hTERT-RPTEC-OAT1", "conditions": "concentration not given, Transwell, basolateral-to-apical addition", "measurement": "LDH release", "result": "119 mU/mL and 98.2 mU/mL"}
{"Structure (SMILES)": "Cc1cc(Nc2ccc(S(F)(F)(F)(F)F)cc2)n2nc(C(C)(F)F)nc2n1", "tested on": "Plasmodium vivax", "assay": "12-lead Holter ECG", "test system": "human malaria patients", "conditions": "oral, 600 mg, QTc above 450 ms", "measurement": "patients with QTcF above threshold", "result": "0%"}
{"Structure (SMILES)": "CC1(C)OB(c2ccc(CNS(=O)(=O)c3cc(C(=O)Nc4cc(F)c(F)c(F)c4)ccc3F)cc2)OC1(C)C", "tested on": "hepatitis B virus", "test system": "HepAD38", "scale": "relative to: CC50 over EC50", "measurement": "selectivity index", "result": 11.7}
{"Structure (SMILES)": "CC(C)(C(=O)N1CCOc2c(C#N)cncc2C1)C(F)F", "test system": "human, both sexes", "conditions": "oral, 30 mg single dose", "measurement": "subjects with thrombophlebitis TEAE", "result": "16.7%"}
{"Structure (SMILES)": "COc1cccc(-c2n[nH]c(SCc3ccccn3)n2)c1OC", "tested on": "CHO-WBL", "assay": "in vitro micronucleus test", "conditions": "50 µg/mL, 3 h, with: rat liver S9", "measurement": "micronucleated binucleated cells", "result": "1.2%"}
{"Structure (SMILES)": "CC1(C)CCC(c2ccc(Cl)cc2)=C(CN2CCN(c3ccc(C(=O)NS(=O)(=O)c4ccc(N[C@H](CCN5CCOCC5)CSc5ccccc5)c(S(=O)(=O)C(F)(F)F)c4)cc3)CC2)C1", "tested on": "mouse ileal enteroid monolayers", "conditions": "50 % saturated solubility, 4 h, basolateral fractions 1-10, with: oleic acid/monoolein micelles", "measurement": "drug secreted with TRL", "result": "11.2 ± 1.4%"}
{"Structure (SMILES)": "NCc1cc2c(cc1F)C(=O)N(C1CCC(=O)NC1=O)C2 (stereo not shown)", "tested on": "Amine oxidase [flavin-containing] A (MAOA, Homo sapiens, UniProt P21397)", "assay": "substrate, LC-MS/MS", "test system": "recombinant enzyme", "conditions": "10 µM, 0 h, pH 7.4", "measurement": "concentration", "result": "11 µM"}
{"Structure (SMILES)": "N#Cc1ccc2c(c1)[C@H]1CCCN(C(=O)c3ccc4[nH]cnc4c3)[C@H]1C2", "test system": "human", "conditions": "40 mg, day 15", "measurement": "minimum ACTH level", "result": "4.3 pmol/L"}
{"Structure (SMILES)": "Cc1cc(N)c2c(OCC(C)(C)C(=O)NC(C)C)cccc2n1", "tested on": "Salmonella typhimurium", "assay": "reverse mutation, plate incorporation", "test system": "TA98", "conditions": "500 µg/plate, without S9", "measurement": "mean revertant colonies", "result": "25 colonies/plate"}
{"Structure (SMILES)": "CC[C@H](C)[C@H](NC(=O)[C@H](Cc1ccc(O)cc1)NC(=O)[C@@H](NC(=O)[C@@H](N)CCCN=C(N)N)C(C)C)C(=O)N[C@@H](Cc1c[nH]cn1)C(=O)N1CCC[C@H]1C(=O)N[C@@H](Cc1ccccc1)C(=O)O", "tested on": "chymotrypsin", "assay": "LC-MS", "conditions": "20 µM, 120 min, pH 7.4, 25 °C", "measurement": "proteolytic conversion", "result": "99.9 ± 0.3%"}
{"note": "A few entries again:"}
{"Structure (SMILES)": "CC[C@H](C)[C@H](NC(=O)[C@H](Cc1ccc(O)cc1)NC(=O)[C@@H](NC(=O)[C@@H](N)CCCN=C(N)N)C(C)C)C(=O)N[C@@H](Cc1c[nH]cn1)C(=O)N1CCC[C@H]1C(=O)N[C@@H](Cc1ccccc1)C(=O)O", "tested on": "chymotrypsin", "assay": "LC-MS", "conditions": "20 µM, 120 min, pH 7.4, 25 °C", "measurement": "proteolytic conversion", "result": "99.9 ± 0.3%"}
